Measured values from different studies.
Numbered parts are unrelated; each lists some results of a single study. Positions count from the first letter of the parent shown.

Set 1
Target: Sal-like protein 4, full length isoform A (SALL4, Homo sapiens, UniProt Q9UJQ4, residues 1-1053)
Chain of UniProt Q9UJQ4 (whole entry, looked up): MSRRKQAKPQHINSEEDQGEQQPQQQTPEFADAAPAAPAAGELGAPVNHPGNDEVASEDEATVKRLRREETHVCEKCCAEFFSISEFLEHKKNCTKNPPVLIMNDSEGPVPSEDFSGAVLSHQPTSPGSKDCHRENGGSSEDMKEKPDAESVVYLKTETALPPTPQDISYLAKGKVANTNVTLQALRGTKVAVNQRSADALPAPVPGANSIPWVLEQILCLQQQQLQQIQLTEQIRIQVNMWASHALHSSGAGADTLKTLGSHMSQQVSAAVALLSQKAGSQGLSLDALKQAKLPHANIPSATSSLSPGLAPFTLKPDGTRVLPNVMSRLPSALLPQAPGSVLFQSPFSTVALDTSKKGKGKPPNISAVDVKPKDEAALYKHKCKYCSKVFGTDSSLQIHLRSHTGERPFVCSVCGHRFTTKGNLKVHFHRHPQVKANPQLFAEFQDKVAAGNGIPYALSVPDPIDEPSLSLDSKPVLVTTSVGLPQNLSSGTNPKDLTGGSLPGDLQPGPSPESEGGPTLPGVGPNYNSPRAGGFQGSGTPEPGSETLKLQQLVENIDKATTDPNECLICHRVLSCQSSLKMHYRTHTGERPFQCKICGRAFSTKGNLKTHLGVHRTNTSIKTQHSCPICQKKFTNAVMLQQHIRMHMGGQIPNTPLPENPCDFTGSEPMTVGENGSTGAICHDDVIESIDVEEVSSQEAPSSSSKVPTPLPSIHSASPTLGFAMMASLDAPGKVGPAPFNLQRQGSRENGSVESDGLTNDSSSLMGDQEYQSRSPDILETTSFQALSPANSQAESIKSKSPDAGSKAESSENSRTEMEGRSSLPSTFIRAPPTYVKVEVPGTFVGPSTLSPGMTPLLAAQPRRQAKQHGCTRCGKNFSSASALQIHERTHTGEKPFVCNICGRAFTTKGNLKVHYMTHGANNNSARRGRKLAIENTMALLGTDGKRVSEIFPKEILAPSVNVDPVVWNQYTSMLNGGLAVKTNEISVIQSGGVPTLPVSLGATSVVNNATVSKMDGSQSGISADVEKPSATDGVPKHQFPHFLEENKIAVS
Method: universal PBM
Molecule type: double-stranded DNA, one strand shown
Matrix: in vitro
Tested at: 600 nM
Setting: 8-mer, flanks averaged, mean of replicates
Direction: higher = stronger binding
The E-score of `AACGCCAG` is reported as -0.219.
For `AGTAAAAC`, the E-score was 0.201.
`CCGACTAC` gave an E-score of -0.185.
`AATGCGCC` gave an E-score of -0.137.
`AGATTGTG` has an E-score of 0.00519.
`CGAAGCCA` has an E-score of -0.0971.
`AGACAGTG` has an E-score of -0.0939.
`CACCCAGC` has an E-score of -0.382.
For `GAGCTGCC`, the E-score was -0.332.
`CGTGATTA` gave an E-score of 0.2.
The E-score of `ACGTAAAA` is reported as 0.254.
With `CCACGCAC` the E-score was -0.119.
`ATCCCCTG` gave an E-score of -0.163.
For `GCCAGAAA`, the E-score was -0.11.
`TGCGACCA` gave an E-score of -0.0625.
The E-score of `ATGGATTG` is reported as 0.142.
With `AGCCGTTG` the E-score was -0.186.
With `GGTCTCCA` the E-score was -0.139.
For `CGTGTCGC`, the E-score was -0.216.

Set 2
Target: Histone acetyltransferase KAT6A, both winged helices, GST fusion (KAT6A, Homo sapiens, UniProt Q92794, residues 1-181)
Method: protein binding microarray
Molecule type: double-stranded DNA, one strand shown
Matrix: in vitro
Tested at: not given
Setting: 8-mer, flanks averaged, mean of 2 arrays, mostly near background
Baseline: not given
Direction: higher = stronger binding
Target sequence (chain): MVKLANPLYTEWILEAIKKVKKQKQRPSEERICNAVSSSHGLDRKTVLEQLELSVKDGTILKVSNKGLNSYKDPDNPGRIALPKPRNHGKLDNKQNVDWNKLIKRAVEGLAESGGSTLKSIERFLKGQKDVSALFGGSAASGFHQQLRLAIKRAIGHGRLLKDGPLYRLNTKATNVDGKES
The E-score of `AGAGCACG` is reported as 0.0819.
The E-score of `CCCTTTTA` is reported as -0.204.
With `GCTCACCC` the E-score was -0.0451.
`ATTAATAA` has an E-score of -0.00324.
`ATACAGCA` has an E-score of 0.0247.
`AGATAATA` gave an E-score of -0.0886.
`AAGGCGTG` has an E-score of 0.104.
With `CCTCGCAG` the E-score was -0.00043.
The E-score of `GTATGTAA` is reported as -0.0712.
The E-score of `ATCAGCGC` is reported as 0.259.
For `GTTGGACA`, the E-score was -0.00736.
`CGTAAAAC` gave an E-score of 0.166.
The E-score of `CTTAGTCC` is reported as -0.0784.
`AAATATGT` has an E-score of 0.0352.

Set 3
Organism: Saccharomyces cerevisiae
Effect on: binding
Method: competitive growth deep sequencing
Molecule type: peptide
Strain: cyclin E1-Cln2 fusion strain
Setting: peptide tiling library
Direction: direction not given
`IPDRSTKPVVFSPT` gave an enrichment score of 1.3.
For `RRRRLLFWDKETQI`, the enrichment score was -0.929.
`HRRRLLFACSPPPASQ` has an enrichment score of -0.651.

Set 4
Target: CEP164, C-terminal peptide (human)
Method: DHFR complementation, deep sequencing
Matrix: yeast
Setting: single substitutions, model-inferred values
Baseline: wild type
Direction: higher = weaker binding
Starting sequence: PDZK1, PDZ domain 2 (human); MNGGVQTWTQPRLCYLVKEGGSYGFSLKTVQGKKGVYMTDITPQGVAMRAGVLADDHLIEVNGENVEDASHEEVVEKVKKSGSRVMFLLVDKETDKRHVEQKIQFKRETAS; partner HNRVKVYRF
`L88Y`: “binding free energy change” -0.0858 kcal/mol.
`N62L`: “binding free energy change” 1.19 kcal/mol.
Under “binding free energy change”, `Y15S` is recorded as 0.0051 kcal/mol.
`Q44C` — result for “binding free energy change”: 0.0855 kcal/mol.
`K79H` — result for “binding free energy change”: 0.388 kcal/mol.
Under “binding free energy change”, `A110V` is recorded as -0.0915 kcal/mol.
`V74I` — result for “binding free energy change”: -0.0704 kcal/mol.
For `K77R`, “binding free energy change” read -0.0523 kcal/mol.
`Q101P` — result for “binding free energy change”: -0.021 kcal/mol.
`A50G`: “binding free energy change” 0.224 kcal/mol.
`G82D`: “binding free energy change” 0.73 kcal/mol.
`V66N`: “binding free energy change” 0.933 kcal/mol.
`T39G`: “binding free energy change” 0.589 kcal/mol.
Under “binding free energy change”, `E108H` is recorded as -0.282 kcal/mol.

Mixed results
`PhoQ, residues 284 288 289 292 302 303 SLCLSL` gave a fold induction of 17 (PhoP, residues 12 14 15 18 19 SYFRT (Escherichia coli, UniProt P23836); Sort-seq, refers to: YFP reporter; E. coli; PhoQ-PhoP variant library, added: 10 µM Mg2+; baseline: high Mg2+ state, higher = stronger signaling).

A few entries again (set 1):
`AATGCGCC` gave an E-score of -0.137.
`TGCGACCA` gave an E-score of -0.0625.
`AGACAGTG` has an E-score of -0.0939.
For `GAGCTGCC`, the E-score was -0.332.
For `CGTGTCGC`, the E-score was -0.216.
With `GGTCTCCA` the E-score was -0.139.
